Measured values of several laboratories.
Parts stem from different laboratories: compare values within a part only.
UniProt Q9H4B4, sequence (whole entry, looked up): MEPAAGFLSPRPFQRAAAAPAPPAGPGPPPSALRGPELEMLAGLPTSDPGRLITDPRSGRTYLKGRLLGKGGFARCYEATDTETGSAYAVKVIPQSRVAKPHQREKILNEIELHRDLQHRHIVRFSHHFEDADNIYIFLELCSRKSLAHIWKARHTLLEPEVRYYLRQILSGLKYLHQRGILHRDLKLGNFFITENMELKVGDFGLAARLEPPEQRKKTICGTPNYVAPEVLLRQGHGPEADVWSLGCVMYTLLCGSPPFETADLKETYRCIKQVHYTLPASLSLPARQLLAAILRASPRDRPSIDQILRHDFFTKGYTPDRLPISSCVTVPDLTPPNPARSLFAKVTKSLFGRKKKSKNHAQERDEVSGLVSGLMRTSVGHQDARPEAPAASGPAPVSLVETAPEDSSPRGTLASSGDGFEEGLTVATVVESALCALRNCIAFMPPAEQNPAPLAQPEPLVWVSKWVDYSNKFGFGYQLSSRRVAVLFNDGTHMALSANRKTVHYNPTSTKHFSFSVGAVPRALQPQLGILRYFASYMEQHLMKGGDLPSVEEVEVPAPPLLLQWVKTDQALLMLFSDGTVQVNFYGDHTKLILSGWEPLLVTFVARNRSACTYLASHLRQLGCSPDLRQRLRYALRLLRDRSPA
UniProt Q96RR4, sequence (whole entry, looked up): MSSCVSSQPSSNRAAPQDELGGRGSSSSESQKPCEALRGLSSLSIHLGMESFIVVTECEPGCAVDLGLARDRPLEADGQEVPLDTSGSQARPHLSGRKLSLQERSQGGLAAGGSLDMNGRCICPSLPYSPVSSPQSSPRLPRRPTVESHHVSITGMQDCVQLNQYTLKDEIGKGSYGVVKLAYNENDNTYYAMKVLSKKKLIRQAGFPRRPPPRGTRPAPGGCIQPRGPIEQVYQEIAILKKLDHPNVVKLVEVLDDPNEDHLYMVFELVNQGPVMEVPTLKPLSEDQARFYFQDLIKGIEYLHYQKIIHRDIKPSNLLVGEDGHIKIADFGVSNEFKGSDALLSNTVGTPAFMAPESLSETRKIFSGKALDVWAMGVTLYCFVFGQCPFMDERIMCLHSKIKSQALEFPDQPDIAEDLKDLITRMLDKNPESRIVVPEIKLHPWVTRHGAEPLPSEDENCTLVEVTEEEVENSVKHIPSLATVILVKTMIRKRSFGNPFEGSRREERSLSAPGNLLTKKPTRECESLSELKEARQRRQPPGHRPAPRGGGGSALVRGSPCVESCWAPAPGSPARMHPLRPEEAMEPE
UniProt P23458, sequence (whole entry, looked up): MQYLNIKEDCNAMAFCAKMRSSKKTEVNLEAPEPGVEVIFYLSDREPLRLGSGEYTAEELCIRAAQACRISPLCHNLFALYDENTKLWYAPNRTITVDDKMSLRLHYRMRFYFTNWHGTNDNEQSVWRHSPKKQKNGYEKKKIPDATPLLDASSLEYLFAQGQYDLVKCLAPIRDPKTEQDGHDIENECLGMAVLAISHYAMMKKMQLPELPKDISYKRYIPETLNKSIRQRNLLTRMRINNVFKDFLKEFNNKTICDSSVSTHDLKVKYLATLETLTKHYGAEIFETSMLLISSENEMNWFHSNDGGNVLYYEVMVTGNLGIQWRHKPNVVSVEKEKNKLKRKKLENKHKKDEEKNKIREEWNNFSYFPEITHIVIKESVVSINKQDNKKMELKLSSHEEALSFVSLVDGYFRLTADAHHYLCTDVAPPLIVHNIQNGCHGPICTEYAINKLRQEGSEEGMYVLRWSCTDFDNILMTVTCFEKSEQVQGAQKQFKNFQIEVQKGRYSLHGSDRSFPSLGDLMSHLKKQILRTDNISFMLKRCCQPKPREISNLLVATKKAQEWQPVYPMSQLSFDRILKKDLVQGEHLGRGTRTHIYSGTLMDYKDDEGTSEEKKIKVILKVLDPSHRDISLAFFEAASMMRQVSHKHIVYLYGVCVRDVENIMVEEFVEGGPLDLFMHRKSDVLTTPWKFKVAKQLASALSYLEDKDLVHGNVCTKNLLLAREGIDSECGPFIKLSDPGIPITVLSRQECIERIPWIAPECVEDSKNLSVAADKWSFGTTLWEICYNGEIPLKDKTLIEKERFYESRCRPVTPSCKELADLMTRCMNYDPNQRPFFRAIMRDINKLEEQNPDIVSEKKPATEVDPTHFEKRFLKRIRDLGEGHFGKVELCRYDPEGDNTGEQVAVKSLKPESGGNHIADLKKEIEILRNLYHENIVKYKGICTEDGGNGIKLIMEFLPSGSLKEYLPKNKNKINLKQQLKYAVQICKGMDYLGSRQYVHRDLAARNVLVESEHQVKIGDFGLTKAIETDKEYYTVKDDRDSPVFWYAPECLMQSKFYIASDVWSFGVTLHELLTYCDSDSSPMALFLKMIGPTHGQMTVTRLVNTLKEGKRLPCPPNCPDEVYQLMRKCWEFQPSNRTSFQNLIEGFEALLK
UniProt Q9Y2H1, sequence (whole entry, looked up): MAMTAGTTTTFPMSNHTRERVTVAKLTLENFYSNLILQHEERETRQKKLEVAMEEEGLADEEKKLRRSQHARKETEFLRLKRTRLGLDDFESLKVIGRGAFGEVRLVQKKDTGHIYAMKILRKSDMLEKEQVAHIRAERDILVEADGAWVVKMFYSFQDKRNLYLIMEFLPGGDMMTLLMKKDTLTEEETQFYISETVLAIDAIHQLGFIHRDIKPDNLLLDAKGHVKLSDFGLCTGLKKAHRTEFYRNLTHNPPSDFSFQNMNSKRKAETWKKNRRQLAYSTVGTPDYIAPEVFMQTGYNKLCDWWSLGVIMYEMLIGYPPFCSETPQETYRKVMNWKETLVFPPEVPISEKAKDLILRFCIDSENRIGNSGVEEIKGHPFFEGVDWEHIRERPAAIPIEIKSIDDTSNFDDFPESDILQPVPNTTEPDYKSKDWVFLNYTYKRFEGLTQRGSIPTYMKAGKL
UniProt P15056, sequence (whole entry, unmodified, looked up): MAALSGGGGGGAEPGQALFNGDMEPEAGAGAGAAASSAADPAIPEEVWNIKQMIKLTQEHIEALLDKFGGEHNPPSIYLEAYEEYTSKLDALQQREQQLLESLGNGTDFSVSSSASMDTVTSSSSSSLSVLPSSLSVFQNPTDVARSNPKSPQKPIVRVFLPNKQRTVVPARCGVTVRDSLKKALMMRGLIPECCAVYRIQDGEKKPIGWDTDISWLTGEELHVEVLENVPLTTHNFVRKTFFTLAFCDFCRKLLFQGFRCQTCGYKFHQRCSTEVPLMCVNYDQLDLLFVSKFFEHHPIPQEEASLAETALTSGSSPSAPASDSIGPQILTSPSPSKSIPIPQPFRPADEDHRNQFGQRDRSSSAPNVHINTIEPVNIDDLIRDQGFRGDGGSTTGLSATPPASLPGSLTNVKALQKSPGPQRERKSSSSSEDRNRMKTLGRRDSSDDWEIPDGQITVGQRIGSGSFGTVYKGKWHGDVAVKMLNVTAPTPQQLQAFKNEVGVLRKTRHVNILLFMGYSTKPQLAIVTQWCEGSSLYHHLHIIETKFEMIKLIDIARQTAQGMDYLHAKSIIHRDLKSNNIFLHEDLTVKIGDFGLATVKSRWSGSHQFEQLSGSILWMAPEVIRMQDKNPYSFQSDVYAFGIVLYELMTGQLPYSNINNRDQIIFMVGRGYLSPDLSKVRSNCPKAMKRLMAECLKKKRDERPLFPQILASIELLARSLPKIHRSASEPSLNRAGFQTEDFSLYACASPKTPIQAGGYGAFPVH
UniProt Q13882, sequence (whole entry, looked up): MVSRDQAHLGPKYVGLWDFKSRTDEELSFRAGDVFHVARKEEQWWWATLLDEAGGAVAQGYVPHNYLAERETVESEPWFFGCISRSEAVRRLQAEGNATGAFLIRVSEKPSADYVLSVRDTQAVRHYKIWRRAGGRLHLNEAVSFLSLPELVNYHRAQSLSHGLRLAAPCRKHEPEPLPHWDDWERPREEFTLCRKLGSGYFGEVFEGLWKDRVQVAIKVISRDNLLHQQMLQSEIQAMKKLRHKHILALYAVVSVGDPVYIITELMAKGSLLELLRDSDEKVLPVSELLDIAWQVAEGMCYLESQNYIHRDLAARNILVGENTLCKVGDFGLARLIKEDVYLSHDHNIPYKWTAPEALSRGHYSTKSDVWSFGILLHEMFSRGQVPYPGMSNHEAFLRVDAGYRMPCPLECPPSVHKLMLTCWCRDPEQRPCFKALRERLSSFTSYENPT
UniProt P45983, sequence (whole entry, looked up): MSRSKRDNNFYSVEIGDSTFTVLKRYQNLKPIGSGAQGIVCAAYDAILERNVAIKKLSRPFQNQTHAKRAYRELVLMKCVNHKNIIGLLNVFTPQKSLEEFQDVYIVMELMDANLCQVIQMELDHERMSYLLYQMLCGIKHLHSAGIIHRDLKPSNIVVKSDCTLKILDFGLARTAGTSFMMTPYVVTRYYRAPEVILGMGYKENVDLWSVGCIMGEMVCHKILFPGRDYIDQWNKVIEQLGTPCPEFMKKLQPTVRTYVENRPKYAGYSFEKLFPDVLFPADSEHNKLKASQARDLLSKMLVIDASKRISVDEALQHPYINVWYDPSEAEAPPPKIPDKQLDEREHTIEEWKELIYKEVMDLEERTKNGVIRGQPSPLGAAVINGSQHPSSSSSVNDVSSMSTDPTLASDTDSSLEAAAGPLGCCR

Study 1
Compound: CN1CCN(C(=O)c2ccc(NC(=O)Nc3ccc(N(C)c4ccnc(Nc5ccc(CS(C)(=O)=O)cc5)n4)cc3)cc2)CC1
Concentration: 1 µM
CSNK1E (Homo sapiens, UniProt P49674); competitive binding panel; baseline: vehicle — remaining binding: 75%.
PAK3 (Homo sapiens, UniProt O75914); competitive binding panel; baseline: vehicle — remaining binding: 0%.
For FLT3 (Homo sapiens, UniProt P36888); competitive binding panel; baseline: vehicle: remaining binding read 1.5%.
For PLK3 (Homo sapiens, UniProt Q9H4B4); competitive binding panel; baseline: vehicle: remaining binding read 100%.
It gave 100% for remaining binding (CAMKK2 (Homo sapiens, UniProt Q96RR4); competitive binding panel; baseline: vehicle).
The remaining binding was 1.7% (CDKL2 (Homo sapiens, UniProt Q92772); competitive binding panel; baseline: vehicle).
It gave 13% for remaining binding (JAK1 (Homo sapiens, UniProt P23458); competitive binding panel; baseline: vehicle).
It gave 5.5% for remaining binding (MAPK8 (Homo sapiens, UniProt P45983); competitive binding; JNK1).
For ACVRL1 (Homo sapiens, UniProt P37023); competitive binding panel; baseline: vehicle: remaining binding read 79%.

Study 2
Cell line: HaCaT
Concentration: 100 µM
Time: 36 h
`O=C(O)CN(CCN(CC(=O)O)CC(=O)O)CC(=O)O` has a viability of 92.1%.
For `OCc1ccccc1O[C@@H]1O[C@H](CO)[C@@H](O)[C@H](O)[C@H]1O`, the viability was 85.4%.
For `Cc1cccc(Nc2ccncc2S(=O)(=O)NC(=O)NC(C)C)c1`, the viability was 97.4%.
With `CC1CCc2cc(F)cc3c(=O)c(C(=O)O)cn1c23` (stereo not drawn) the viability was 89.3%.
With `CC1(C)O[C@@H]2C[C@H]3[C@@H]4CCC5=CC(=O)C=C[C@]5(C)[C@H]4[C@@H](O)C[C@]3(C)[C@]2(C(=O)CO)O1` the viability was 96.7%.
The viability of `Cc1nc(Nc2ccc(F)cc2)nc(N2CCc3ccccc3C2C)c1C` (stereo not drawn) is reported as 6.63%.
With `COc1cc2c(cc1OC)[C@H]1CC(=O)[C@H](CC(C)C)CN1CC2` (racemic) the viability was 73.7%.
With `CCCCOc1ccc(CC(=O)NO)cc1` the viability was 77.6%.
`C[C@@H]1O[C@@H](O[C@H]2[C@H](Oc3cc(O)c4c(c3)O[C@H](c3ccc(O)cc3)CC4=O)O[C@H](CO)[C@@H](O)[C@@H]2O)[C@H](O)[C@H](O)[C@H]1O` has a viability of 87.8%.
With `Cc1ncc(CSSCc2cnc(C)c(O)c2CO)c(CO)c1O` the viability was 112%.
For `CCN(CC)Cc1cc(Nc2ccnc3cc(Cl)ccc23)ccc1O`, the viability was 17.1%.
`CC(C)(Sc1cc(C(C)(C)C)c(O)c(C(C)(C)C)c1)Sc1cc(C(C)(C)C)c(O)c(C(C)(C)C)c1` has a viability of 76.8%.
The viability of `O=C(/C=C/c1ccc(O)cc1)c1ccc(O)cc1O` is reported as 100%.
The viability of `CCOC(=O)Nc1ccc(NCc2ccc(F)cc2)nc1N` is reported as 76.8%.

Study 3
SMILES: Cc1noc([C@H]2C[C@@H](c3ccc(C(F)(F)F)cc3)CN(C(=O)N3CCS(=O)(=O)C3)C2)n1
Technique: competition with immobilised ligand
Concentration: 1 µM
For CDK7 (Homo sapiens, UniProt P50613); cell-free assay: remaining binding read 89%.
CDK9 (Homo sapiens, UniProt P50750); cell-free assay — remaining binding: 100%.
BUB1 (Homo sapiens, UniProt O43683); cell-free assay — remaining binding: 100%.
PLK3 (Homo sapiens, UniProt Q9H4B4); cell-free assay — remaining binding: 88%.
For RET (Homo sapiens, UniProt P07949, V804M); cell-free assay: remaining binding read 100%.
CDK4 (Homo sapiens, UniProt P11802); cell-free assay — remaining binding: 100%.
STK38L (Homo sapiens, UniProt Q9Y2H1); binding — remaining binding: 100%.
PIK3CB (Homo sapiens, UniProt P42338); cell-free assay — remaining binding: 99%.
It gave 89% for remaining binding (BRAF (Homo sapiens, UniProt P15056, V600E); cell-free assay).
MATK (Homo sapiens, UniProt P42679); cell-free assay — remaining binding: 100%.
It gave 100% for remaining binding (MAPK4 (Homo sapiens, UniProt P31152); cell-free assay).
PTK2 (Homo sapiens, UniProt Q05397); cell-free assay — remaining binding: 100%.
The remaining binding was 100% (FLT3 (Homo sapiens, UniProt P36888, N841I); cell-free assay).
The remaining binding was 100% (MAPK6 (Homo sapiens, UniProt Q16659); cell-free assay).
For IGF1R (Homo sapiens, UniProt P08069); cell-free assay: remaining binding read 100%.
For PTK6 (Homo sapiens, UniProt Q13882); cell-free assay: remaining binding read 100%.
The remaining binding was 100% (MAP4K1 (Homo sapiens, UniProt Q92918); cell-free assay).

Study 4
Target: Tyrosine-protein kinase CSK (CSK, Homo sapiens, UniProt P41240)
UniProt P41240, sequence (whole entry, looked up): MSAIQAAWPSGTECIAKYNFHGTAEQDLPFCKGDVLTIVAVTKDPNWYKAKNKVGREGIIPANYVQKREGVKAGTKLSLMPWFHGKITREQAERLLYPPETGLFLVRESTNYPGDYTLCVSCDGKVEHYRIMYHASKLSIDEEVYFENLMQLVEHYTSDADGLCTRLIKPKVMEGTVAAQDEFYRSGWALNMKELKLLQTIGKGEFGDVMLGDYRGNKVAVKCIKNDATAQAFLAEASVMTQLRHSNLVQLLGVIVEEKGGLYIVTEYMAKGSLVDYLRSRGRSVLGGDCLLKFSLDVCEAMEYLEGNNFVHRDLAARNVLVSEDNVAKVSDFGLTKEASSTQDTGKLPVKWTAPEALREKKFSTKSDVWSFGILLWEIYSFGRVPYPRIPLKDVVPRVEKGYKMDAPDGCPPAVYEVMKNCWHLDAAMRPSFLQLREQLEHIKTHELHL
Read-out: enzyme activity
Mode: inhibitor
Concentration: 0.5 µM
Baseline: control
`O=Nc1c(-c2c(O)[nH]c3ccccc23)[nH]c2ccccc12` has a remaining activity of 93%.
The remaining activity of `O=C(c1ccccc1)c1ccc(N2CCOCC2)cc1O` is reported as 101%.
`COc1cc2c(N3CCN(C(=O)Nc4ccc(OC(C)C)cc4)CC3)ncnc2cc1OCCCN1CCCCC1` has a remaining activity of 99.3%.
`Nc1nc(Nc2ccc(S(N)(=O)=O)cc2)nn1C(=S)Nc1c(F)cccc1F` has a remaining activity of 76.8%.
With `NC(=O)c1ccc(-c2nc(-c3ccc4c(c3)OCCO4)c(-c3ccccn3)[nH]2)cc1` the remaining activity was 104%.
For `COc1cc2c(Nc3ccc(Br)cc3F)ncnc2cc1OCC1CCN(C)CC1`, the remaining activity was 54.4%.
`FC(F)(F)c1ccc(/C=C/c2nc(COc3ccc(CCCCn4ccnn4)cc3)co2)cc1` has a remaining activity of 106%.
With `Clc1ccc(Nc2nnc(Cc3ccncc3)c3ccccc23)cc1` the remaining activity was 87.6%.
For `O=c1c(-c2ccc(F)cc2)c(-c2ccncc2)[nH]n1-c1ccc(Cl)cc1`, the remaining activity was 86.1%.
For `CC(C)N(CCC(=O)c1ccc2ccccc2c1)Cc1ccccc1`, the remaining activity was 88.5%.
The remaining activity of `CC(C)(C)c1nc2c3cc[nH]c(=O)c3c3cc(F)ccc3c2[nH]1` is reported as 114%.
The remaining activity of `CCCCc1c(-c2ccc(O)cc2)[nH]c2nccnc12` is reported as 78.2%.
`O=C1c2ccccc2-c2nc3nnnn3nc21` has a remaining activity of 84.8%.
For `c1cc(-c2cnn3cc(-c4ccc(OCCN5CCCCC5)cc4)cnc23)ccn1`, the remaining activity was 59.1%.
The remaining activity of `O=C1NC(=O)/C(=C/c2ccc3c(c2)OC(F)(F)O3)S1` is reported as 88%.
The remaining activity of `N#CC(c1ccnc(NCCc2cccnc2)n1)c1nc2ccccc2s1` (stereo not drawn) is reported as 93.4%.
`CCN(CC)CCCCN1c2ccccc2Oc2ccc(Cl)cc21` has a remaining activity of 99.1%.
With `NC(=O)c1cccc(-c2cc(Nc3ccc(OC(F)(F)F)cc3)ncn2)c1` the remaining activity was 104%.
For `C[C@@H](N)[C@H]1CC[C@H](C(=O)Nc2ccncc2)CC1`, the remaining activity was 101%.
The remaining activity of `CC(C)n1cnc2c(Nc3cccc(Cl)c3)nc(NCCO)nc21` is reported as 98.2%.
`N#C/C(=C(/N)SC1C=CC=CC1)c1cccc(C(O)c2ccncc2)c1` (stereo not drawn) gave a remaining activity of 90.2%.
For `O=C(O)/C=C/c1cc(Br)c(Br)c(Br)c1Br`, the remaining activity was 103%.
`CNc1cc2c(Nc3cccc(Br)c3)ncnc2cn1` has a remaining activity of 82%.

A few entries again (study 4):
The remaining activity of `CCCCc1c(-c2ccc(O)cc2)[nH]c2nccnc12` is reported as 78.2%.
`COc1cc2c(N3CCN(C(=O)Nc4ccc(OC(C)C)cc4)CC3)ncnc2cc1OCCCN1CCCCC1` has a remaining activity of 99.3%.
With `Clc1ccc(Nc2nnc(Cc3ccncc3)c3ccccc23)cc1` the remaining activity was 87.6%.
The remaining activity of `CC(C)(C)c1nc2c3cc[nH]c(=O)c3c3cc(F)ccc3c2[nH]1` is reported as 114%.
`FC(F)(F)c1ccc(/C=C/c2nc(COc3ccc(CCCCn4ccnn4)cc3)co2)cc1` has a remaining activity of 106%.
`Nc1nc(Nc2ccc(S(N)(=O)=O)cc2)nn1C(=S)Nc1c(F)cccc1F` has a remaining activity of 76.8%.
`CNc1cc2c(Nc3cccc(Br)c3)ncnc2cn1` has a remaining activity of 82%.
`CCN(CC)CCCCN1c2ccccc2Oc2ccc(Cl)cc21` has a remaining activity of 99.1%.
`O=C1c2ccccc2-c2nc3nnnn3nc21` has a remaining activity of 84.8%.
